Assay results gathered from unrelated publications.
Lines come from different studies, so protocols differ.
Target: Serine/threonine-protein kinase Nek9 (NEK9, Homo sapiens, UniProt Q8TD19)

| SMILES | assay | conditions | how to read | quantity | result |
| --- | --- | --- | --- | --- | --- |
| NC(=O)[C@@H](O)C[C@H]1CCc2sc3ncnc(O[C@H]4CC[C@H](N5CCOCC5)CC4)c3c21 | enzyme activity, inhibitor | 10 µM | – | inhibition | 1% |
| COc1cc(Nc2nc(C)cc(-c3cnn4nc(OC)ccc34)n2)cc(C(F)(F)F)c1 | inhibitor | 1 µM | relative to: control | remaining activity | 94% |
| C=CC(=O)N1CCc2ccc(-n3c(=O)ccc4cnc5ccc(-c6cnn(C)c6)cc5c43)cc21 | KINOMEscan | 1 µM | relative to: DMSO control | remaining binding | 100% |
| C=CC(=O)N1Cc2nc(-c3cc(-c4cc(Cl)cnc4Cl)c(F)cc3F)n(-c3ccncn3)c2C1 | cell-free assay, inhibitor | 1 µM | – | inhibition | 0% |
| C=CC(=O)N1CCCC(n2c(=O)c3ncccc3n(Cc3ccc(Oc4ccccc4)cc3)c2=O)C1 (stereo not shown) | cell-free assay, competition with immobilised ligand | 1 µM | – | remaining binding | 97% |
| CNC(=O)C1CCN(c2cc(C)c(F)cc2NC(=O)c2ccc(-c3cc(O)ccc3C)c(C)c2)CC1 | binding, competition with immobilised ligand | 1 µM | – | remaining binding | 100% |
| O=C(Cc1ccc(OCc2ccccc2)cc1)NC1(C(=O)O)CCN(C(=O)c2ccc(-c3cccc(Cl)c3)cc2)CC1 | enzyme activity, inhibitor | 10 µM | – | activity vs control | 68% |
| COc1ccc(C(=O)/C=C/c2ccccc2-c2c[nH]c3ccc(C#N)cc23)c(O)c1 | enzyme activity, inhibitor | 20 µM | – | inhibition | -8% |
| CNC(=O)C[C@H](Cc1ccc(C#N)cc1)NC(=O)c1cc(-c2ccc(CN[C@H](C)c3ccc(C)cc3)o2)ccc1Cl | enzyme activity, inhibitor | 1 µM | – | activity vs control | 117% |
| COc1c(Cl)cccc1Nc1c(-c2ccncc2C#C[C@@]2(C)CCCN2C(=O)/C=C/CN(C)C)[nH]c2c1C(=O)NCC2 | binding, competition with immobilised ligand | 3 µM | – | remaining binding | 100% |
| Nc1ncc2c(n1)-c1c([nH]c3ccc(C4=CCOCC4)cc13)CCC2 | binding, competition with immobilised ligand | 1 µM | – | remaining binding | 100% |
| Cc1cccc(O[C@H]2CCC[C@@H](C(C)CNCc3ccncc3)C2)c1 (relative stereo) | enzyme activity, inhibitor | 1 µM | – | inhibition | 1% |
| C=CC(=O)Nc1cccc(-c2cnc3[nH]cc(C(=O)NC(C)(C)C)c3n2)c1 | enzyme activity, inhibitor | 0.1 µM | – | inhibition | 28% |
